Experimental data from different studies.
Each line is one published result; not all experiments were run side by side.
Target: Ribosomal protein S6 kinase alpha-2 (RPS6KA2, Homo sapiens, UniProt Q15349)
UniProt Q15349, sequence (whole entry, looked up): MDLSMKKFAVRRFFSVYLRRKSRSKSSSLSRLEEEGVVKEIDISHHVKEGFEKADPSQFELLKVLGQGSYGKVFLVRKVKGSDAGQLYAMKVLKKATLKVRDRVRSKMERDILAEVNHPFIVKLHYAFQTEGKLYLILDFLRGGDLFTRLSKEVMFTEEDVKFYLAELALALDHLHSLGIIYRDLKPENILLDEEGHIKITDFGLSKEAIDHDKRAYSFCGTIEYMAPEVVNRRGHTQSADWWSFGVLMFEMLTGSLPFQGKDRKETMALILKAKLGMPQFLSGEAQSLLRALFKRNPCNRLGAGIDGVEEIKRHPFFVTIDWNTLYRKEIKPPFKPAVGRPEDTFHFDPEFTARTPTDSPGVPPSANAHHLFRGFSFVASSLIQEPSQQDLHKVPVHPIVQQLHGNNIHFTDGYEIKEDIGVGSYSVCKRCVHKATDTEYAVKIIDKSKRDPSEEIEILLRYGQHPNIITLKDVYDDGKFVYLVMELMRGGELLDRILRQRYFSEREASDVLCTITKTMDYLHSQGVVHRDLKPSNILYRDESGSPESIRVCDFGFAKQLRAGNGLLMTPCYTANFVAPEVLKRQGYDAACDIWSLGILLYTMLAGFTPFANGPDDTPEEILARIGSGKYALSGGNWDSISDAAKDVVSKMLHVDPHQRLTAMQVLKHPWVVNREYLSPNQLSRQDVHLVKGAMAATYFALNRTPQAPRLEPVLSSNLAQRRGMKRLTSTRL

`CN1CC(Oc2cnc(C#N)cc2-c2ccn3nc(NC(=O)C4CC4)cc3c2)C1` gave an inhibition of -1% (inhibitor, KinaseProfiler panel; 1 µM).
The inhibition of `CNc1cccc2cc(C(=O)Nc3ccc(C(=O)O)cc3)c(=O)[nH]c12` is reported as 5.4% (kinase activity, inhibitor; 10 µM).
With `CC/C(=N\NC(=O)NCc1cccc(O)c1)c1ccc(O)c(C)c1O` the inhibition was 39.1% (kinase activity; 0.1 µM).
The remaining activity of `CC(C)(O)[C@H]1CC[C@H](Nc2ccc3ncc(-c4cccc(C(F)(F)F)c4)n3n2)CC1` is reported as 93.9% (enzyme activity, inhibitor; 1 µM, with: 10 µM ATP; reference: DMSO).
With `Cn1c2c(c3ccc(Cl)c(Cl)c31)C(C#N)C1(CCN(C(=O)OC(C)(C)C)CC1)NC2=O` (racemic) the ΔTm was 0 °C (thermal shift; 10 µM, 2 µM protein; higher = stronger binding).
For `CC[C@@H]1[C@H](F)C(=O)N[C@@H]1COc1nccc2cc(C(N)=O)c(OC)cc12`, the inhibition was -7.6% (ATP-site probe binding, ActivX profiling, item: RSK3; THP-1 cell lysate; 0.04 mM, Lys2 site).
For `N#CC1c2c([nH]c3c(Cl)c(Cl)ccc23)C(=O)NC12CCCCC2` (racemic), the ΔTm was 0.6 °C (thermal shift; 10 µM, 2 µM protein; higher = stronger binding).
`Cc1cc(Nc2cc(N3CCN(C)CC3)nc(Sc3ccc(NC(=O)C4CC4)cc3)n2)[nH]n1` has a remaining activity of 94% (kinase activity, KinaseProfiler; 0.03 µM, species human; reference: control).
With `Cn1c2c(c3ccc(Cl)c(Cl)c31)C(C#N)C1(CCCC1)NC2=O` (stereo not shown) the ΔTm was 0.3 °C (thermal shift; 10 µM, 2 µM protein; higher = stronger binding).
With `COc1cc(F)ccc1-c1ncnc(Nc2cccc(C[S@](C)(=N)=O)c2)n1` the remaining activity was 97% (kinase activity; 10 µM, with: 10 µM ATP).

Excerpt of the above:
With `Cn1c2c(c3ccc(Cl)c(Cl)c31)C(C#N)C1(CCN(C(=O)OC(C)(C)C)CC1)NC2=O` (racemic) the ΔTm was 0 °C (thermal shift; 10 µM, 2 µM protein; higher = stronger binding).
For `CC[C@@H]1[C@H](F)C(=O)N[C@@H]1COc1nccc2cc(C(N)=O)c(OC)cc12`, the inhibition was -7.6% (ATP-site probe binding, ActivX profiling, item: RSK3; THP-1 cell lysate; 0.04 mM, Lys2 site).
